Published values collected from several papers.
Each line is one published result; not all experiments were run side by side. Several values in a cell are separate wells, animals, samples, runs or records.

Cc1ccc(N2CCC(N(C)C)CC2)cc1C(=O)N[C@H](C)c1cc(-c2cnn(C)c2)nc2ccccc12 — viability (Vero E6; 31.25 µM): 83.9% and 84.4% and 79.6%
NC(=S)N/N=C/c1ccc(OCc2ccccc2)cc1 — viability (IMR-32; MTT; 200 µg/mL, 24 h; baseline: untreated control): 57.4%
Cc1ccc(OCCN(C)C)cc1C(=O)N[C@H](C)c1cc(-c2scnc2C)nc2ccccc12 — viability (Vero E6; 15.62 µM): 97.4% and 94%
NC(=S)N/N=C/c1ccc(OCc2cccc(F)c2)cc1 — viability (IMR-32; MTT; 50 µg/mL, 24 h; baseline: untreated control): 94.9%
CNC(=O)C[C@H](Cc1ccncc1)NC(=O)[C@@H](Cc1cccc(Br)c1)NC(=O)[C@@H](N)Cc1ccsc1 — viability (Huh-7-ACE2; CellTiter-Glo; 0.0488 µM, 48 h, unit not given; baseline: DMSO): 0.947 and 0.997 and 0.862
CCCCCCCCCCCCCCCC(=O)OCC(CSC[C@H](N)C(=O)N[C@@H](CO)C(=O)N[C@@H](CCCCN)C(=O)N[C@@H](CCCCN)C(=O)N[C@@H](CCCCN)C(=O)N[C@@H](CCCCN)C(=O)O)OC(=O)CCCCCCCCCCCCCCC (stereo partly drawn) — viability (HFF-1; 1 µg/mL, 48 h): 91.2%
Cc1ccc(N2CCC3(CC2)CN(C)C3)cc1C(=O)N[C@H](C)c1cc(-c2cnn(C)c2)nc2ccccc12 — viability (Vero E6; 7.812 µM): 96.1% and 94.5% and 98.9%
CNC(=O)C[C@H](Cc1ccccc1)NC(=O)[C@@H](Cc1ccc(Cl)cc1Cl)NC(=O)[C@H](N)Cc1ccccc1C#N — viability (Huh-7-ACE2; CellTiter-Glo; 12.5 µM, 48 h, unit not given; baseline: DMSO): 0.962 and 1.01 and 0.943
Cc1ccc(OCCN(C)C)cc1C(=O)N[C@H](C)c1cc(-c2ccn(C)n2)nc2ccccc12 — viability (Vero E6; 3.906 µM): 92.6% and 96.6% and 96.2%
COc1cc(OCc2cccc(-c3ccccc3)c2C)cc(OC)c1CN1CCCC[C@H]1C(=O)O — viability (MDA-MB-231; cell growth or viability, CCK-8; 10 µM, 24 h): 78.1%
CNC(=O)C[C@H](Cc1ccncc1)NC(=O)[C@@H](Cc1cccc(Br)c1)NC(=O)[C@@H](N)Cc1cccc(F)c1 — viability (Huh-7-ACE2; CellTiter-Glo; 0.00153 µM, 48 h, unit not given; baseline: DMSO): 1.11 and 0.992 and 0.891
CCCCCCCCCCCCCCCC(=O)OCC(CSC[C@H](N)C(=O)NCC(=O)N[C@@H](CC(=O)O)C(=O)N1CCC[C@H]1C(=O)N[C@@H](CCCCN)C(=O)N[C@@H](Cc1c[nH]cn1)C(=O)N1CCC[C@H]1C(=O)N[C@@H](CCCCN)C(=O)N[C@@H](CO)C(=O)N[C@@H](Cc1ccccc1)C(=O)O)OC(=O)CCCCCCCCCCCCCCC (stereo partly drawn) — viability (HFF-1; 0.01 µg/mL, 48 h): 78%
CCn1ccc(-c2cc([C@@H](C)NC(=O)c3cc(N4CCN(C)[C@H](C)C4)ccc3C)c3ccccc3n2)n1 — viability (Vero E6; 7.812 µM): 98.3% and 99.5% and 95%
CCCCCCCCCCCCCCCC(=O)N[C@@H](CSCC(COC(=O)CCCCCCCCCCCCCCC)OC(=O)CCCCCCCCCCCCCCC)C(=O)N[C@@H](CO)C(=O)N[C@@H](CCCCN)C(=O)N[C@@H](CCCCN)C(=O)N[C@@H](CCCCN)C(=O)N[C@@H](CCCCN)C(=O)O (stereo partly drawn) — viability (HFF-1; 0.1 µg/mL, 48 h): 95%
Cc1ccc(OCCN(C)C)cc1C(=O)N[C@H](C)c1cc(-c2cncs2)nc2ccccc12 — viability (Vero E6; 3.906 µM): 98.7% and 110%
CNC(=S)N/N=C/c1ccc(OCc2ccccc2)cc1 — viability (IMR-32; MTT; 400 µg/mL, 24 h; baseline: untreated control): 49.4%
CCOc1ccc(CN2CC[C@H]2C(=O)NC)cc1-c1cccc(C(=O)NC[C@@H]2COC(C)(C)O2)c1 — viability (Huh-7-ACE2; CellTiter-Glo; 0.195 µM, 48 h, unit not given; baseline: DMSO): 0.933 and 1.02 and 0.955
Cc1ccc(OCCN(C)C)cc1C(=O)N[C@H](C)c1cc(-c2ccc(C#N)nc2)nc2ccccc12 — viability (Vero E6; 3.906 µM): 102% and 109%
CNC(=O)C[C@H](Cc1ccc(F)cc1)NC(=O)[C@@H](Cc1ccc(Cl)cc1Cl)NC(=O)[C@H](N)Cc1ccccc1C#N — viability (Huh-7-ACE2; CellTiter-Glo; 0.195 µM, 48 h, unit not given; baseline: DMSO): 1.13 and 1.08 and 0.941
Cc1ccc(N2C[C@@H]3C[C@H]2CN3C)cc1C(=O)N[C@H](C)c1cc(-c2cnn(C)c2)nc2ccccc12 — viability (African green monkey cells; 62.5 µM): 96.7%
CNC(=O)CC[C@H](Cc1ccccc1)NC(=O)[C@@H](Cc1ccc(Cl)cc1Cl)NC(=O)[C@H](N)Cc1ccccc1[N+](=O)[O-] — viability (Huh-7-ACE2; CellTiter-Glo; 0.0061 µM, 48 h, unit not given; baseline: DMSO): 0.985 and 0.984 and 1.08
NC(=O)N/N=C/c1ccc(OCc2cccc(F)c2)cc1 — viability (IMR-32; MTT; 50 µg/mL, 24 h; baseline: untreated control): 91.5%
CNC(=O)C[C@H](Cc1ccc(F)cc1)NC(=O)[C@@H](Cc1ccc(Cl)cc1Cl)NC(=O)[C@H](N)Cc1ccccc1[N+](=O)[O-] — viability (Huh-7-ACE2; CellTiter-Glo; 0.000381 µM, 48 h, unit not given; baseline: DMSO): 0.942 and 0.931 and 1.01
O=c1n(CCNCCOS(=O)(=O)c2ccccc2)c(=O)n(S(=O)(=O)c2ccccc2)c(=O)n1S(=O)(=O)c1ccccc1 — viability (HUVEC; cell growth or viability, MTT; 25 µg/mL, 72 h): 23%

Repeated from above:
CNC(=O)C[C@H](Cc1ccncc1)NC(=O)[C@@H](Cc1cccc(Br)c1)NC(=O)[C@@H](N)Cc1ccsc1 — viability (Huh-7-ACE2; CellTiter-Glo; 0.0488 µM, 48 h, unit not given; baseline: DMSO): 0.947 and 0.997 and 0.862
CCCCCCCCCCCCCCCC(=O)OCC(CSC[C@H](N)C(=O)NCC(=O)N[C@@H](CC(=O)O)C(=O)N1CCC[C@H]1C(=O)N[C@@H](CCCCN)C(=O)N[C@@H](Cc1c[nH]cn1)C(=O)N1CCC[C@H]1C(=O)N[C@@H](CCCCN)C(=O)N[C@@H](CO)C(=O)N[C@@H](Cc1ccccc1)C(=O)O)OC(=O)CCCCCCCCCCCCCCC (stereo partly drawn) — viability (HFF-1; 0.01 µg/mL, 48 h): 78%
